Measurements collected from several papers.
Protocols differ between the studies behind these lines. ± marks the error that the study gave.
Sequence of UniProt Q15102 (whole entry, looked up): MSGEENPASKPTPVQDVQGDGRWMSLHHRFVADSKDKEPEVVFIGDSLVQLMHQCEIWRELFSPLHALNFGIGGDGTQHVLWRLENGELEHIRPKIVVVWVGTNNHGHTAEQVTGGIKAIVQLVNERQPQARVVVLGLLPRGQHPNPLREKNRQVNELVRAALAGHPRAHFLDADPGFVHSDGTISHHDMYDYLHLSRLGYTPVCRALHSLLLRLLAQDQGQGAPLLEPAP
Sequence of UniProt Q9GZQ6 (whole entry, looked up): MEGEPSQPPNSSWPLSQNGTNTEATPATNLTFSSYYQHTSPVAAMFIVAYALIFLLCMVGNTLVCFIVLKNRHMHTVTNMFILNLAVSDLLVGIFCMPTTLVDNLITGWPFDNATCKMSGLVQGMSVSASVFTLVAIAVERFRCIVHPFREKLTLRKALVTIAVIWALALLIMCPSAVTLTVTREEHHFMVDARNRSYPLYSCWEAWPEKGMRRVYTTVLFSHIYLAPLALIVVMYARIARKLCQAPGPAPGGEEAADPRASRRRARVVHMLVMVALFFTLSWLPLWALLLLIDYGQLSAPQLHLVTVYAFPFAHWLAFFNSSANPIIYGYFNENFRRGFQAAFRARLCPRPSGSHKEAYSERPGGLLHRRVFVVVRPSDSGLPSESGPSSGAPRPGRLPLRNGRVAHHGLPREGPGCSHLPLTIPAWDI
Sequence of UniProt P28335 (whole entry, looked up): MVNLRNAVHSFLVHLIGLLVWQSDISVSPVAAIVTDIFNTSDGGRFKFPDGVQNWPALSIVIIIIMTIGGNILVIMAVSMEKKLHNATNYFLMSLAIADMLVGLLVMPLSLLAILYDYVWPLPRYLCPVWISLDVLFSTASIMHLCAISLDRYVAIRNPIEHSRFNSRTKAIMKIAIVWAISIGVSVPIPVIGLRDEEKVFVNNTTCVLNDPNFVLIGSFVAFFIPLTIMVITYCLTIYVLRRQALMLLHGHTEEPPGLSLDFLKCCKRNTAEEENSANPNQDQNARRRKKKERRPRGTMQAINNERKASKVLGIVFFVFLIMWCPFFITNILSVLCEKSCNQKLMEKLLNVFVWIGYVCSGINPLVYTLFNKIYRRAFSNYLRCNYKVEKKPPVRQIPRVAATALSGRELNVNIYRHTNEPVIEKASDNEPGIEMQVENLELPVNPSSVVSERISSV
Sequence of UniProt P62258 (whole entry, looked up): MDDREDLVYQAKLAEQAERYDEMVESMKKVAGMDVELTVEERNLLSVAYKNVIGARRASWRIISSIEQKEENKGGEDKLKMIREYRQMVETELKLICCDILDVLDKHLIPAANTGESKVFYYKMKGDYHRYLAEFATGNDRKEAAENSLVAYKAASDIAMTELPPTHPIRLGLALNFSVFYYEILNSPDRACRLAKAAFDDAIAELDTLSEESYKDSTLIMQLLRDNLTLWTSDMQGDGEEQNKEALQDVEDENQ
Sequence of UniProt Q8NET8 (whole entry, unmodified, looked up): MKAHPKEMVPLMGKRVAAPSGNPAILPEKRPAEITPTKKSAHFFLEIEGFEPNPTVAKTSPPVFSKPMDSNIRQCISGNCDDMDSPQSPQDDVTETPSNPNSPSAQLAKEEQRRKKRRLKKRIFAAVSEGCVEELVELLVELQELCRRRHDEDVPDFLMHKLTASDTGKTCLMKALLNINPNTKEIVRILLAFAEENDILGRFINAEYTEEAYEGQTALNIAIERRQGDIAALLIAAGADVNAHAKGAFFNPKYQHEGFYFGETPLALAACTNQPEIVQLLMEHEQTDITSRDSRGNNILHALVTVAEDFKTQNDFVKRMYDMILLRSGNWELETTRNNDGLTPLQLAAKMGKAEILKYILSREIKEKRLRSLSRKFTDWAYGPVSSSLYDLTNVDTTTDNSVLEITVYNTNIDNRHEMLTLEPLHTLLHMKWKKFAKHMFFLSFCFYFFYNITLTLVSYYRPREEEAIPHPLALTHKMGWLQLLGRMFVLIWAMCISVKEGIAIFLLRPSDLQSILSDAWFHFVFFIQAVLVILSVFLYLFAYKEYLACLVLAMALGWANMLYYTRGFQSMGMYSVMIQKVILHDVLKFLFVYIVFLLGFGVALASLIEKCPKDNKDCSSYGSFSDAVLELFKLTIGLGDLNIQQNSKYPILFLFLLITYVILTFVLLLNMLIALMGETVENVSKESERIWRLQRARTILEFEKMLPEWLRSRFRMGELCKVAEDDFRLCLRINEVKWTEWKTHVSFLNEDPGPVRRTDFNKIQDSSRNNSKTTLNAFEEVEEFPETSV
Sequence of UniProt P47775 (whole entry, looked up): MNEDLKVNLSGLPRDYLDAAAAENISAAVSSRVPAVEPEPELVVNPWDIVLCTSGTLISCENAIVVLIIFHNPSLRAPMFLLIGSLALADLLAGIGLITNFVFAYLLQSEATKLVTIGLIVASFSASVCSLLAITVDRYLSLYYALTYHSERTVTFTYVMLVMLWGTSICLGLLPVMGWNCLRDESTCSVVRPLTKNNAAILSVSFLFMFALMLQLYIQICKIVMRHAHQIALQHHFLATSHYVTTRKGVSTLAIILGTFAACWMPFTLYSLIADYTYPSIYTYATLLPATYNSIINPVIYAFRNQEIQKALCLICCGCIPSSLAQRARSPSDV
Sequence of UniProt P45983 (whole entry, looked up): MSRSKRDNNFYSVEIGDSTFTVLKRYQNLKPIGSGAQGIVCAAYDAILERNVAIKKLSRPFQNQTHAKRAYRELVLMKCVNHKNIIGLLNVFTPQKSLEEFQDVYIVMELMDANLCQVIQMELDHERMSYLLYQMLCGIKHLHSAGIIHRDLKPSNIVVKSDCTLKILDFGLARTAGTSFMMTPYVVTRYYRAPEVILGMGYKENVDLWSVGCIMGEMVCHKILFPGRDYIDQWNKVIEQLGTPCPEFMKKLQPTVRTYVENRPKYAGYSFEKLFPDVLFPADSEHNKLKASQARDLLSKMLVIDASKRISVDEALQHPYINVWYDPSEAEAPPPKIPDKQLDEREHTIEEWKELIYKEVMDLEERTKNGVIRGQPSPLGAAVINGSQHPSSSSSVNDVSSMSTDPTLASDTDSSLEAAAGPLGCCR
Sequence of UniProt Q14416 (whole entry, looked up): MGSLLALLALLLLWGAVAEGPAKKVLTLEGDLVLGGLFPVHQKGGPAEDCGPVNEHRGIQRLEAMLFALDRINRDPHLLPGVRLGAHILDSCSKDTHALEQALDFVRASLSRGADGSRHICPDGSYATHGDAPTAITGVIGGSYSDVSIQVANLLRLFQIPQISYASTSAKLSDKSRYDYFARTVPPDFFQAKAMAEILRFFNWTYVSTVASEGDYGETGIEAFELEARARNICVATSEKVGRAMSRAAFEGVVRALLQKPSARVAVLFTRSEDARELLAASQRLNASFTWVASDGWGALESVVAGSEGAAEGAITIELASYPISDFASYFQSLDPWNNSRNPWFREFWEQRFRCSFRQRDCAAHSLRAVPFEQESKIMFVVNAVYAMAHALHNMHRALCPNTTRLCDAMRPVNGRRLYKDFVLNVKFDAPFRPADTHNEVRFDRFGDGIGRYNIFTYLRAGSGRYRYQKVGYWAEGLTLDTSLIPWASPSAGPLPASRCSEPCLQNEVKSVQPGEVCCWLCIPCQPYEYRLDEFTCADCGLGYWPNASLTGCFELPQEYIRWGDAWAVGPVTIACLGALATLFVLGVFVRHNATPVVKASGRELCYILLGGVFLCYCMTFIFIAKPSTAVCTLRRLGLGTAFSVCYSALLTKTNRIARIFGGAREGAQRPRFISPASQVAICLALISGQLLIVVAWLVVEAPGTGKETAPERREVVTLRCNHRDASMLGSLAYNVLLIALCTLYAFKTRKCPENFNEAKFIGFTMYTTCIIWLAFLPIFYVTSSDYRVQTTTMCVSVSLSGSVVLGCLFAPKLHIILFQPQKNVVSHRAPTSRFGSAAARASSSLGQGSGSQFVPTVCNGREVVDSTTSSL

SMILES | target or system | assay | system | conditions | scale | measurement | result
COc1ccc(N2C(=O)N(c3c(C)cccc3Cl)Cc3cnc(Nc4ccc(C5CCN(C)CC5)cc4OC)nc32)nc1 | Mitogen-activated protein kinase 8 (MAPK8, Homo sapiens, UniProt P45983) | kinase activity, inhibitor |  | 0.5 µM, kinase JNK1 |  | inhibition | 8%
[2H]c1c([2H])c([C@]2([2H])CCCN2C(=O)C(C)(C)Oc2ccc3cn[nH]c3c2)c([2H])c([2H])c1C([2H])([2H])[2H] | Epidermal growth factor receptor (EGFR, Homo sapiens, UniProt P00533) | KINOMEscan |  | 1 µM | baseline: DMSO control | remaining binding | 86%
CC[C@H](C)[C@H](NC(=O)[C@H](Cc1ccccc1)NC(=O)[C@H](CCC(=O)O)NC(=O)[C@H](CCCNC(=N)N)NC(=O)[C@H](C)NC(=O)[C@H](C)NC(=O)[C@H](CCC(N)=O)NC(=O)[C@H](CCC(=O)O)NC(=O)[C@H](CCC(=O)O)NC(=O)[C@H](CC(C)C)NC(=O)[C@H](Cc1ccc(O)cc1)NC(=O)[C@H](CO)NC(=O)[C@H](CO)NC(=O)[C@@H](NC(=O)[C@H](CC(=O)O)NC(=O)[C@H](CO)NC(=O)[C@@H](NC(=O)[C@H](Cc1ccccc1)NC(=O)[C@@H](NC(=O)CNC(=O)[C@H](CCC(=O)O)NC(=O)[C@H](C)NC(=O)CCc1c[nH]cn1)[C@@H](C)O)[C@@H](C)O)C(C)C)C(=O)N[C@@H](C)C(=O)N[C@@H](Cc1c[nH]c2ccccc12)C(=O)N[C@@H](CC(C)C)C(=O)N[C@H](C(=O)N[C@@H](CCCNC(=N)N)C(=O)NCC(=O)N[C@@H](CCCNC(=N)N)C(=O)N[C@@H](CCCCNC(=O)COCCOCCNC(=O)COCCOCCNC(=O)CC[C@H](NC(=O)CCCCCCCCCCCCCCCCC(=O)O)C(=O)O)C(=O)NCC(=O)NCC(=O)N[C@@H](CO)C(=O)N[C@@H](CCCCNc1c(NCCCCCN(O)C(=O)CCC(=O)NCCCCCN(O)C(=O)CCC(=O)NCCCCCN(O)C(C)=O)c(=O)c1=O)C(=O)O)C(C)C [zirconium-89 labelled] |  | gamma counting | rat, stomach-duodenum content | intravenous, 3 nmol/kg, 72 h |  | tissue uptake | 0.05 %ID/g
CN1CC[C@@]2(C)c3cc(OC(=O)Nc4ccccc4)ccc3N(C)[C@@H]12 | human nicotinic α3β2 receptor | radioligand binding |  | 10 µM, added: [3H]epibatidine |  | inhibition | 6.1%
CC[C@H](C)[C@H](NC(=O)CNC(=O)[C@@H](N)CCCCN)C(=O)N[C@@H](CC(C)C)C(=O)N[C@@H](CCCCN)C(=O)N[C@@H](CCCNC(=N)N)C(=O)N[C@@H](CCC(=O)O)C(=O)N[C@@H](CCCCN)C(=O)N[C@@H](CCCNC(=N)N)C(=O)N[C@@H](CC(C)C)C(=O)N[C@@H](CCCNC(=N)N)C(=O)N[C@@H](CCCNC(=N)N)C(=O)N[C@@H](CCCCN)C(=O)N[C@@H](CC(N)=O)C(=O)N[C@H](C(=O)N[C@@H](Cc1c[nH]cn1)C(=O)N[C@@H](Cc1c[nH]c2ccccc12)C(=O)N1CCC[C@H]1C(=O)N[C@@H](CCC(=O)O)C(=O)N[C@@H](CCC(=O)O)C(=O)NCC(=O)N[C@@H](CCCCN)C(=O)N[C@@H](CC(C)C)C(=O)N[C@@H](CCCNC(=N)N)C(=O)N[C@@H](CCC(=O)O)C(=O)N[C@@H](Cc1ccccc1)C(=O)N[C@@H](Cc1ccccc1)C(=O)N[C@@H](Cc1ccccc1)C(=O)N[C@@H](Cc1ccccc1)C(=O)N[C@@H](CCC(=O)O)C(=O)N[C@@H](CC(C)C)C(=O)N[C@@H](CC(=O)O)C(=O)N[C@@H](CCC(=O)O)C(=O)N[C@@H](C)C(=O)N[C@@H](CCC(=O)O)C(=O)N[C@@H](CCCNC(=N)N)C(=O)N[C@H](C(=O)N[C@@H](CC(N)=O)C(=O)N[C@H](C(=O)O)C(C)C)C(C)C)C(C)C | HeLa and HEK-293T cells | phosphatase bead binding, competitive inhibitor, PIB pulldown iBAQ LC-MS/MS, item: PPP6C |  | concentration not given | baseline: untreated control | log2 fold change | -0.67
CN1CCN(c2cc(-c3ccncc3)c(-c3ccc4ccccc4c3)nn2)CC1 | Metabotropic glutamate receptor 2 (GRM2, Homo sapiens, UniProt Q14416) | antagonist, FLIPR |  | 10 µM |  | inhibition | 27.7%
COc1cc2c(Oc3ccc4[nH]c(C)cc4c3F)ccnc2cc1OCC1(N)CC1 |  |  | paediatric recurrent refractory sarcoma | concentration not given, whole group |  | grade 1 or 2 sinus bradycardia | 5.9%
C[C@@H](O)[C@@H](CO)NC(=O)[C@@H](CCCNC(=N)N)NC(=O)[C@@H]1CCCN1C(=O)[C@@H]1CSSC[C@H](NC(=O)[C@H](Cc2ccccc2)NC(=O)CN2CCN(CC(=O)O)CCN(CC(=O)O)CCN(CC(=O)O)CC2)C(=O)N[C@@H](Cc2ccc(O)cc2)C(=O)N[C@@H](Cc2ccccc2)C(=O)N[C@@H](CCC(N)=O)C(=O)N[C@@H](CC(N)=O)C(=O)N1 [gallium-68 labelled] |  |  | Wistar rat, healthy, Submandibular gland | intravenous, 8 MBq, 30 min, mean |  | tissue uptake | 0.44 %ID/g
COc1ccc2c(-c3nc(-c4c(C)[nH]c5ccc(OC)cc45)cs3)c[nH]c2c1 | differentiated W12E | CUT&RUN-qPCR |  | concentration not given | baseline: untreated | BARD1 binding at HPV ori | decreased
CN[C@@]1(c2ccccc2Cl)CCCCC1=O | P2X receptor | radioligand binding, agonist, radioligand displacement |  | 30 µM |  | inhibition | -8%
C[C@H]1CN(c2n[nH]c3nc(N[C@H]4CC[C@H](NS(=O)(=O)CCC(F)(F)F)CC4)ncc23)CCO1 | 14-3-3 protein epsilon (Homo sapiens, UniProt P62258) | Kinobeads competition, item: YWHAE |  | 0.16 µM, unit not given | baseline: vehicle | remaining binding | 1.03
COc1cc(Nc2ncc(F)c(Nc3ccc4c(n3)NC(=O)C(C)(C)O4)n2)cc(OC)c1OC | 5-hydroxytryptamine receptor 2C (HTR2C, Homo sapiens, UniProt P28335) |  |  |  |  | IC50 | > 10 µM
CC[C@H](C)[C@H](NC(=O)CNC(=O)[C@@H](N)CCCCN)C(=O)N[C@@H](CC(C)C)C(=O)N[C@@H](CCCCN)C(=O)N[C@@H](CCCNC(=N)N)C(=O)N[C@@H](CCC(=O)O)C(=O)N[C@@H](CCCCN)C(=O)N[C@@H](CCCNC(=N)N)C(=O)N[C@@H](CC(C)C)C(=O)N[C@@H](CCCNC(=N)N)C(=O)N[C@@H](CCCNC(=N)N)C(=O)N[C@@H](CCCCN)C(=O)N[C@@H](CC(N)=O)C(=O)N[C@H](C(=O)N[C@@H](Cc1c[nH]cn1)C(=O)N[C@@H](Cc1c[nH]c2ccccc12)C(=O)N1CCC[C@H]1C(=O)N[C@@H](CCC(=O)O)C(=O)N[C@@H](CCC(=O)O)C(=O)NCC(=O)N[C@@H](CCCCN)C(=O)N[C@@H](CC(C)C)C(=O)N[C@@H](CCCNC(=N)N)C(=O)N[C@@H](CCC(=O)O)C(=O)N[C@@H](Cc1ccc(O)cc1)C(=O)N[C@@H](Cc1ccccc1)C(=O)N[C@@H](Cc1ccc(O)cc1)C(=O)N[C@@H](Cc1ccccc1)C(=O)N[C@@H](CCC(=O)O)C(=O)N[C@@H](CC(C)C)C(=O)N[C@@H](CC(=O)O)C(=O)N[C@@H](CCC(=O)O)C(=O)N[C@@H](C)C(=O)N[C@@H](CCC(=O)O)C(=O)N[C@@H](CCCNC(=N)N)C(=O)N[C@H](C(=O)N[C@@H](CC(N)=O)C(=O)N[C@H](C(=O)O)C(C)C)C(C)C)C(C)C | HeLa and HEK-293T cells | phosphatase bead binding, competitive inhibitor, PIB pulldown iBAQ LC-MS/MS, item: PPP4C |  | concentration not given | baseline: untreated control | log2 fold change | 0.51
CCCc1cc(O)c2c(c1)OC(C)(C)[C@@H]1CCC(C)=C[C@@H]21 | Transient receptor potential cation channel subfamily V member 3 (TRPV3, Homo sapiens, UniProt Q8NET8, R696K) | calcium uptake, agonist | HEK293S | mutant R696K, site 3 |  | Hill coefficient | 2.41 ± 0.31
COc1cc(N)c(Cl)cc1C(=O)NC1CN2CCC1CC2 (stereo not shown) | Neuropeptide FF receptor 1 (NPFFR1, Homo sapiens, UniProt Q9GZQ6) | β-arrestin recruitment, TANGO luminescence, item: NPFF1 |  | concentration not given | baseline: basal luminescence | log2 fold change | -0.063
O=C(c1ccc(Cl)cc1)N1CCN2C(=O)N(OC(=O)N3CCOc4ccccc43)C(=O)C2C1 (stereo not shown) | Platelet-activating factor acetylhydrolase IB subunit alpha1 (Homo sapiens, UniProt Q15102) | enzyme activity, inhibitor, MS-based ABPP | SW-620 in situ | 10 µM, 2 h, 37 °C | baseline: compound over DMSO, lower = stronger inhibition | median ratio | 1.05
Oc1ccc2c3c1O[C@H]1[C@@H](O)CC[C@@]4(O)[C@@H](C2)N(CC2CCC2)CC[C@]314 | G-protein coupled receptor 12 (GPR12, Homo sapiens, UniProt P47775) | β-arrestin recruitment, TANGO luminescence, item: GPR12 |  | concentration not given | baseline: basal luminescence | log2 fold change | -0.307
CC[C@H](C)[C@@H]1NC(=O)[C@@H]2CCCN2C(=O)[C@H](CC(C)C)NC(=O)[C@H](CC(C)C)NC(=O)CNC(=O)[C@@H](NC(=O)[C@@H](NC(=O)[C@H](CC(=O)O)NC(=O)CNC(=O)[C@@H](NC(=O)[C@H](C)NC(=O)CNC(=O)[C@H](CCCCN)NC(=O)[C@H](CC(C)C)NC(=O)[C@H](CC(C)C)NC(=O)[C@H](CCCCN)NC(=O)CNC(=O)[C@@H](NC(=O)[C@@H](N)CC(C)C)C(C)C)C(C)C)C(C)C)CSSC[C@@H](C(=O)O)NC1=O |  | RNA-seq, item: Th mRNA | mouse traumatic brain injury, frontal cortex and hippocampus | dose not given | baseline: TBI plus compound vs TBI | log2 fold change | -1.99
CO[C@H]1C[C@@H]2CC[C@@H](C)[C@@](O)(O2)C(=O)C(=O)N2CCCC[C@H]2C(=O)O[C@H]([C@H](C)C[C@@H]2CC[C@@H](OC(=O)NCCOCCOCCOCCOCCOCCOCCOCCOCCC(=O)N3CCc4cc(Cn5nc(-c6ccc7oc(N)nc7c6)c6c(N)ncnc65)ccc4C3)[C@H](OC)C2)C[C@@H](O)[C@H](C)/C=C(\C)[C@@H](O)[C@@H](OC)C(=O)[C@H](C)C[C@H](C)/C=C/C=C/C=C/1C |  |  | patients with advanced solid tumours | intravenous, 12 mg weekly, grade 3 or higher |  | constipation incidence | 0%

For quick reference, copied from above:
SMILES | target or system | assay | system | conditions | scale | measurement | result
CN[C@@]1(c2ccccc2Cl)CCCCC1=O | P2X receptor | radioligand binding, agonist, radioligand displacement |  | 30 µM |  | inhibition | -8%
